Results gathered from unrelated publications.
“And” joins repeats or separate records; there may be more than shown. ± gives the spread as reported. Values after ≈ are worked out from the molar mass of the structure shown.

Structure (SMILES) = O=C(N[C@@H](CC1CCCCC1)C(=O)N[C@@H](C[C@H]1CCNC1=O)C(=O)C(=O)NC1CC1)OCc1cccc(Cl)c1; system = rat, Sprague-Dawley, female, plasma; setting = oral, 10 mg/kg; quantity = volume of distribution; result = 0.0019 (mg/kg)/(ng/mL)
Structure (SMILES) = C[C@@H](O)[C@H](NC(=O)[C@@H](NC(=O)[C@@H](N)CCCCN)[C@@H](C)O)C(=O)N[C@@H](CCCCN)C(=O)N[C@@H](CO)C(=O)O; system = hairless mouse skin; setting = 50 µg/cm^2, 24 h; quantity = amount retained in epidermis; result = not detected
Structure (SMILES) = CN(C1COC1)C(C)(C)/C=C(\C#N)C(=O)N1CCC[C@H]1Cn1nc(-c2ccc(Oc3ccccc3)cc2F)c2c(N)ncnc21; system = female Sprague-Dawley rat, plasma; setting = oral, 40 mg/kg, 1 h; quantity = concentration; result = 104 ng/mL
Structure (SMILES) = COc1cc2c(cc1OC)CN(CCCCn1ccc3cc(OCC[18F])ccc31)C2; system = male CD-1 mouse, liver; setting = intravenous, 1 h; quantity = tracer uptake; result = 18.3 %ID/g
Structure (SMILES) = CC[C@H](C)[C@@H]1NC(=O)[C@H](Cc2ccccc2)NC(=O)[C@@H](NC(=O)[C@H](CCCNC(=N)N)NC(=O)[C@H](Cc2ccccc2)NC(=O)[C@H](Cc2ccccc2)NC(=O)[C@H](CCCCN)NC(=O)[C@H](CO)NC(=O)[C@H](CC(C)C)NC(=O)[C@H](CCCNC(=N)N)NC(=O)[C@H](CCSC)NC(=O)[C@H](C)N)CCCNC(=O)NC[C@@H](C(=O)N[C@@H](CCCNC(=N)N)C(=O)N[C@@H](CCCCN)C(=O)N[C@@H](CCCCN)C(=O)O)NC(=O)[C@H](CC(C)C)NC1=O; test = circular dichroism; system = 20% TFE in PBS; setting = 200 µM, pH 7.4, 25 °C; quantity = helicity; result = 19.8%
Structure (SMILES) = CC(NC(=O)OC1OC(C(=O)O)C(O)C(O)C1O)c1cc(Cl)ccc1Cn1c(=S)[nH]c(=O)c2[nH]ccc21 (stereo not shown); system = dog, both sexes, plasma; setting = oral, 100 mg/kg/day; scale = relative to: dog over human 5 mg; quantity = exposure ratio; result = 2.8
Structure (SMILES) = [11CH3]c1ccc2nc(C3CCC3)n(-c3ccc4[nH]ncc4c3)c2n1; test = extrapolated from mouse biodistribution; system = human male, red marrow; quantity = absorbed dose; result = 2.3 µSv/MBq
Structure (SMILES) = COc1cc(F)c(C(C)C)cc1C1=C(CN2C(=O)O[C@H](c3cc(C(F)(F)F)cc(C(F)(F)F)c3)[C@@H]2C)CC(C)(C)CC1; test = non-compartmental analysis; system = healthy male subjects, plasma; setting = oral, 400 mg single dose; quantity = Vd/F per body weight; result = 154 L/kg
Structure (SMILES) = CCCCCCCCCCCCCCCC(=O)N[C@@H](CCCCN)C(=O)N[C@@H](CCCCN)C(=O)N[C@@H](CO)C(=O)N[C@@H](CCCNC(=N)N)C(=O)N[C@@H](C)C(=O)N[C@@H](CC(C)C)C(=O)N[C@@H](Cc1ccccc1)C(N)=O; system = cynomolgus monkey, female; setting = 30 mg/kg, day 5; quantity = prothrombin time; result = 11.8 ± 0.6 s
Structure (SMILES) = CC(C)[C@H](NC(=O)CNC(=O)[C@H](CCC(N)=O)NC(=O)[C@H](C)N)C(=O)O; test = LC-MS/MS; system = human, male, plasma; setting = intravenous, 20 mg/kg three times daily, day 3, first dose, 10 min infusion, geometric mean; quantity = clearance; result = 583 mL/min/kg
Structure (SMILES) = Cn1c(=O)oc2ccc(-c3ccc(CC(C#N)NC(=O)C4CNCCCO4)c(F)c3)cc21 (stereo not shown); system = human; setting = oral, 40 mg once daily, TEAE, multiple ascending dose; quantity = lymphadenopathy incidence; result = 0%
Structure (SMILES) = NC[C@@H](C(=O)Nc1ccc(-c2cn[nH]c2)cc1)c1ccccc1; test = OECD 405 eye irritation; system = New Zealand White rabbit, eye; setting = topical, 0.1%, 24 h (day 2); scale = direction not given; quantity = total eye irritation score; result = 0
Structure (SMILES) = CC(C)c1cnc(-c2cc(Cl)ccc2F)cc1Nc1ccncc1C(=O)NC(CO)CO; system = human, advanced solid tumour; setting = oral, dose not given, phase I monotherapy; quantity = AST increase incidence, all grades; result = 23.8%
Structure (SMILES) = [2H]C([2H])([2H])NC(=O)c1ccc(N2C(=S)N(c3ccc(C#N)c(C(F)(F)F)c3)C(=O)C2(C)C)cc1F; system = healthy men; setting = oral, 160 mg, 50 days, fasting, soft capsules; quantity = adverse events; result = 1 occurrences
Structure (SMILES) = CC(C)(Sc1ccncc1-c1ccc(C#N)c2ccccc12)C(=O)OC1OC(C(=O)O)C(O)C(O)C1O (stereo not shown); system = adult men, plasma; setting = oral, 15 mg verinurad, mild renal impairment; scale = relative to: normal renal function; quantity = Cmax increase; result = 29%
Structure (SMILES) = CC(C)CCCC(C)CCCC(C)CCOC1OC[C@@H](O)[C@H](O)[C@H]1O (stereo partly shown); test = filtration and HPLC-MS; system = water; setting = room temperature; quantity = aqueous solubility; result = 31.2 ppm
Structure (SMILES) = O=C([O-])CN1CCN(CC(=O)[O-])CCN(CC(=O)NCC2CCC(C(=O)NC(Cc3ccc4ccccc4c3)C(=O)NCCCCC(NC(=O)NC(CCC(=O)O)C(=O)O)C(=O)O)CC2)CCN(CC(=O)[O-])CC1.[44Sc+3] (stereo not shown); test = PET/CT dosimetry, OLINDA/EXM; system = human, liver; quantity = organ absorbed dose; result = 0.03 mSv/MBq and 0.085 mSv/MBq and 0.097 mSv/MBq
Structure (SMILES) = O=C(O)C1CN(Cc2ccc(-c3noc(-c4ccc(OCC[18F])c(C(F)(F)F)c4)n3)cc2)C1; system = male Sprague-Dawley rat, kidney; setting = intravenous, 5 min; quantity = tissue uptake; result = 2.03 ± 0.25 %ID/g
Structure (SMILES) = CNC(=S)N/N=C/c1ccccn1; test = cyclic voltammetry; system = DMF; setting = Cu2+ complex; quantity = peak current ratio ipa/ipc; result = 0.18
Structure (SMILES) = C/C=C/CNC(=N)NCCCCCCCCN1CCCc2ccccc2COc2ccccc2CNC(=N)NC1=O; system = PAMPA; setting = 500 µM, 5 h, pH 7.4; quantity = Papp; result = < 0.01 ×10⁻⁶ cm/s
Structure (SMILES) = N=C(N)NCCC[C@@H]1NC(=O)[C@H](Cc2c[nH]c3ccccc23)NC(=O)[C@@H](CC2CCCCC2)NC(=O)[C@@H]2CCCN2C(=O)[C@@H](NC(=O)CCc2ccccc2)CCCNC1=O; system = C57BL/6J mouse, plasma plasma; setting = subcutaneous, 1 mg/kg single dose; quantity = MRT(0-last); result = 40.7 min
Structure (SMILES) = COc1ccc2cc(-c3ccc(-c4ccc(C)cn4)nc3)oc2c1; test = TCSPC; system = MeCN; quantity = radiative decay rate constant; result = 0.49 ns⁻¹
Structure (SMILES) = O=C(CCC(C(=O)[O-])N1CCN(C(CCC(=O)NCC(O)CO)C(=O)[O-])Cc2cccc(n2)CN(C(CCC(=O)NCC(O)CO)C(=O)[O-])CC1)NCC(O)CO.[153Gd+3] (stereo not shown); test = equilibrium dialysis; system = human plasma; setting = 0.01-5 µmol/mL, 2 h, 37 °C; quantity = plasma protein binding; result = 0.5%
Structure (SMILES) = C[Si]1(C[C@H](CN)CC(=O)O)CCCC1; system = male Sprague-Dawley rat, plasma; setting = oral, 30 mg/kg, 1 h, single dose; quantity = concentration; result = 33 µM
Structure (SMILES) = O=C(Cc1ccccc1)Nc1nc2ccccc2n1Cc1ccccc1; test = shake-flask; setting = 24 h, pH 7.0, room temperature; quantity = aqueous solubility; result = 1.65 µg/mL (≈ 4.83 µM)
Structure (SMILES) = CC[C@H](C)[C@H](NC(=O)[C@H](Cc1ccccc1)NC(=O)[C@H](CCCN)NC(=O)[C@H](CCCNC(=N)N)NC(=O)[C@H](Cc1ccccc1)NC(=O)[C@H](Cc1ccccc1)NC(=O)[C@H](CCCCN)NC(=O)[C@H](CO)NC(=O)[C@H](CC(C)C)NC(=O)[C@H](CCCNC(=N)N)NC(=O)[C@H](CCSC)NC(=O)[C@H](C)N)C(=O)N[C@@H](CC(C)C)C(=O)N[C@@H](CCN)C(=O)N[C@@H](CCCNC(=N)N)C(=O)N[C@@H](CCCCN)C(=O)N[C@@H](CCCCN)C(=O)O; test = circular dichroism; system = 20% TFE in PBS; setting = 200 µM, pH 7.4, 25 °C; quantity = helicity; result = 21.6%
Structure (SMILES) = CN(Cc1ccc(F)cc1)Cc1cc(=O)oc2cc(O)ccc12; system = HepG2 cell medium; setting = 0.5 mM, 15 min; quantity = remaining intact compound; result = > 99%
Structure (SMILES) = O=C([O-])CN1CCN(CC(=O)[O-])CCN(C(CCC(=O)NC(Cc2c[nH]c3ccc(O)cc23)C(=O)NCCc2c[nH]c3ccc(O)cc23)C(=O)O)CCN(CC(=O)[O-])CC1.[Gd+3] (stereo not shown); test = ICP-MS; system = mouse, blood; setting = iv, 0.1 mmol/kg; quantity = fast-phase half-life; result = 1.2 min

Repeated from above:
Structure (SMILES) = CN(C1COC1)C(C)(C)/C=C(\C#N)C(=O)N1CCC[C@H]1Cn1nc(-c2ccc(Oc3ccccc3)cc2F)c2c(N)ncnc21; system = female Sprague-Dawley rat, plasma; setting = oral, 40 mg/kg, 1 h; quantity = concentration; result = 104 ng/mL
Structure (SMILES) = COc1cc2c(cc1OC)CN(CCCCn1ccc3cc(OCC[18F])ccc31)C2; system = male CD-1 mouse, liver; setting = intravenous, 1 h; quantity = tracer uptake; result = 18.3 %ID/g
Structure (SMILES) = CC[C@H](C)[C@@H]1NC(=O)[C@H](Cc2ccccc2)NC(=O)[C@@H](NC(=O)[C@H](CCCNC(=N)N)NC(=O)[C@H](Cc2ccccc2)NC(=O)[C@H](Cc2ccccc2)NC(=O)[C@H](CCCCN)NC(=O)[C@H](CO)NC(=O)[C@H](CC(C)C)NC(=O)[C@H](CCCNC(=N)N)NC(=O)[C@H](CCSC)NC(=O)[C@H](C)N)CCCNC(=O)NC[C@@H](C(=O)N[C@@H](CCCNC(=N)N)C(=O)N[C@@H](CCCCN)C(=O)N[C@@H](CCCCN)C(=O)O)NC(=O)[C@H](CC(C)C)NC1=O; test = circular dichroism; system = 20% TFE in PBS; setting = 200 µM, pH 7.4, 25 °C; quantity = helicity; result = 19.8%
